Results gathered from unrelated publications.
Every numbered part comes from another study and shows a few of its results, in no order.

Set 1
Organism: VSVΔG pseudotyped with SARS-CoV-2 S
Observed: pseudovirus infection
Strain: Wuhan
Concentration: 10 µM
SMILES | inhibition
CN(C)c1ccc2nc3ccc(N(C)C)cc3[s+]c2c1 | 61%
C=CCNC1=C2C[C@@H](C)C[C@H](OC)[C@H](O)[C@@H](C)/C=C(\C)[C@H](OC(N)=O)[C@@H](OC)/C=C\C=C(/C)C(=O)NC(=CC1=O)C2=O | 50%
CC(C)(C)NC(=S)N/N=C/C=N/NC(=S)NC(C)(C)C | 55%

Mixed results
rep nsp14: Replicase polyprotein 1ab, nsp14 (rep, Severe acute respiratory syndrome coronavirus 2, UniProt P0DTD1)
rep papain-like protease: Replicase polyprotein 1ab, papain-like protease (rep, Severe acute respiratory syndrome coronavirus 2, UniProt P0DTD1)
rep nsp12 RdRp: Replicase polyprotein 1ab, nsp12 RdRp (rep, Severe acute respiratory syndrome coronavirus 2, UniProt P0DTD1)
Structure (SMILES) | target | test | test system | conditions | scale | measurement | result
O=C(NC1CCN(c2ncnc3[nH]cnc23)CC1)c1cccc(NS(=O)(=O)c2ccccc2)c1 | rep nsp14 | enzyme activity | SARS-CoV-2 | concentration not given |  | inhibition | 23.2%
COC(=O)C[C@H](NC(=O)[C@H](C)NC(=O)[C@@H](NC(=O)OCc1ccccc1)C(C)C)C(=O)CF | rep papain-like protease |  |  | concentration not given, C111S mutant | relative to: positive control | activity | 21.1%
CC1(C)[C@@H](O[C@H]2O[C@H](C(=O)O)[C@@H](O)[C@H](O)[C@H]2O[C@@H]2O[C@H](C(=O)O)[C@@H](O)[C@H](O)[C@H]2O)CC[C@]2(C)[C@H]3C(=O)C=C4[C@@H]5C[C@@](C)(C(=O)O)CC[C@]5(C)CC[C@@]4(C)[C@]3(C)CC[C@@H]12.N | rep nsp12 RdRp | binding, biolayer interferometry |  | concentration not given |  | BLI response | 0.01 nm
CC(C)C[C@H](NC(=O)CNC(=O)c1cc(Cl)ccc1Cl)B1OC(=O)C(CC(=O)O)(CC(=O)O)O1 | rep papain-like protease |  |  | concentration not given, C111S mutant | relative to: positive control | activity | 27%
COc1ccc([C@@H]2CC(=O)c3c(O)cc(O[C@@H]4O[C@H](CO[C@@H]5O[C@@H](C)[C@H](O)[C@@H](O)[C@H]5O)[C@@H](O)[C@H](O)[C@H]4O)cc3O2)cc1O | rep nsp12 RdRp | binding, biolayer interferometry |  | concentration not given |  | BLI response | 0.01 nm
Nc1ncnc2c1ncn2[C@@H]1O[C@H](CSCC[C@H](N)C(=O)O)[C@@H](O)[C@H]1O | rep nsp14 | thermal shift |  | 31.25 µM |  | ΔTm | 8.2 °C

Some of these lines once more (mixed results):
Structure (SMILES) | target | test | test system | conditions | scale | measurement | result
COc1ccc([C@@H]2CC(=O)c3c(O)cc(O[C@@H]4O[C@H](CO[C@@H]5O[C@@H](C)[C@H](O)[C@@H](O)[C@H]5O)[C@@H](O)[C@H](O)[C@H]4O)cc3O2)cc1O | rep nsp12 RdRp | binding, biolayer interferometry |  | concentration not given |  | BLI response | 0.01 nm
